Assay results collected from several papers.
Numbered parts are unrelated; each lists some results of a single study. Positions count from the first letter of the parent shown.

Study 1 — method: RNA Bind-n-Seq; molecule type: RNA; medium: in vitro; concentration: 365 nM; relative to: no-protein control; reading: higher = stronger binding; measurement: RBNS enrichment (R)
Target: RNA binding protein fox-1 homolog 2, RRM domain, GST-SBP tag (RBFOX2, Homo sapiens, UniProt O43251-10, residues 100-194)
Notes: natural RNA segment, single round, ends assumed
Constant ends, left off below: GGGAGUUCUACAGUCCGACGAUC … UGGAAUUCUCGGGUGCCAA
Construct (chain): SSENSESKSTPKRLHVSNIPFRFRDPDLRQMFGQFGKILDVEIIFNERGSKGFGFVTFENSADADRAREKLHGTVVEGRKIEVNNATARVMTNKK
CAUCUUCUUGUACAGUUUUUGUUUGGGUAAUGAUCACAGCAAUCCUUACACAUUUUAUGUAAACUCUUUAAUGUCUUUAAUUUGGAUUUUUGUUUCUUAGAACUUUAACA: 0.552
GUGGAGAGGCCGUGGGAUUAAGCACAAUAGGAGGCGCAGCUCCUGCUUCUACCGUUAGGCGCUGCAGGCUUGAAGUGGCAAGGCCCUGCAUCUCAAGCACUCAGAGCUCU: 0.632
CAACACUUUCAGCAGACUAGCCUCUCCUUAUCUCACAGAUCACAAGCACCCCUAGAUAGUGUGAUUCUGUCAGAUAGCAUUUAUGCAAAAAUCUAUGAAGUUAAAAGAUC: 0.701
AGCCCCUGUCAUGGUGUCCAGACAGAGCCCUGUGAGGCUGGGUCCAAUUGUGGCACUUGGGGCACCUUGCUCCUCCUUCUGCUGCUGCCCCCACCUCUGCUGCCUCCCUC: 0.377
UUUGAAGAUCUGUCCAUAUUCAGGAAUCUGAGAGUGUAAAAAAGGUACCAAUCAUUGAUUUUUUUUUUUUUUGUAAACUAAAAUGUUUAAAAUAAAAUAGCAUUUACAGU: 0.713
GAGAGAUUUCUGCUAAUUCUGGGCUUUGAAGCGUACGUCUUUUGAGGGGGCAUUUUGAUGUGGUCCUCCUUGCUUCUGGAGGGACUUGGUUCCCUUUAGAAAACCUGCCC: 0.524
UACCAUUUAUUGUAUUUGCAAAGCUAGUAUGGUUUUUAAUCACAGUAAAUCCUUUGUAUUCCAGACUUUAGGGCAGAGCCCUGAGGGAGUAUUAUUUUACAUAACCCGUC: 0.566
UGAGACCAGCCUGAUCCAUAGAGUGAGUUCCAGGACAGCCAGGUUUAUACAGAGAAACCCUGUCUUGAAAGAGCCAAAAAAAAAAAAAAAAAAUACAAGCCAGGAUUCUG: 0.693
GGAAAAAACCUACAUGCUACAAGCCACCAUAUGCACAGACUAUACAGUGAGUUGAGUUGGCUCUCCCACAGUCUUUGAGGUGAAUUACAAAAGUCCAGCCAUUAUCAUCC: 0.666
UGAAUAUAGAGACCAAGUUUACCACUUCUGAUGAAGAGACCAAUUAAGAUUCAUUCCUCAUUCUGUUUCUUUCCAGUGGGAGAAGAGUCCCCAUGAAAUAAGAUGAAACU: 0.258
UUCUAGAUGUAGGCUAACAAUGAAAAGUAUUUGCCAAACUGAAUAAAACUGUCAUGGUUACCUUGAAGGACAAUGGUUAUUGUUAAAUAUAGUGAUCAUUCAUGUCUAAA: 0.305
UUAAAACCUUGAACACUCCAGUUGACUGCAUCUGUGCUAGUGUGGUAUAUCAUACAUGAUCUUAAAGCCAAAGAUGCCAUGAAAAUACUGCAGUAUGGCUGUGAUUUCUG: 0.421

Study 2 — organism: Saccharomyces cerevisiae; read-out: binding; method: yeast competitive growth sequencing; molecule type: peptide; strain: cyclin D1-Cln2 strain; medium: peptide tiling library; reading: direction not given; measurement: enrichment score
EPRNLLSLFEDTLDPT: 0.554
DVSERGYVILPNDYFE: 1.75
DKYDEGLYRFNSLNDL: 1.88
PHKTFRKLRLFDTPHT: -2.34
GPVKLEFDVSDGAT: 0.23
SPPRGRRLFPPGPAGF: 0.0631
AKRSLGFLPQPVPL: -1.29
ESSQLTVQAEFDMSAI: 1.61
ASVLSKPIFCFVKD: 1.43

Study 3 — method: DHFR PCA, deep sequencing; medium: yeast; with: (+)-ABA 2500 µM; relative to: wild-type fitted maximum; reading: higher = stronger binding; measurement: relative binding score
Target: ABI1, truncated, D143A, DHFR fusion (Arabidopsis thaliana)
Notes: methotrexate growth selection, single substitutions
Starting sequence: PYL1, truncated, DHFR fusion (Arabidopsis thaliana); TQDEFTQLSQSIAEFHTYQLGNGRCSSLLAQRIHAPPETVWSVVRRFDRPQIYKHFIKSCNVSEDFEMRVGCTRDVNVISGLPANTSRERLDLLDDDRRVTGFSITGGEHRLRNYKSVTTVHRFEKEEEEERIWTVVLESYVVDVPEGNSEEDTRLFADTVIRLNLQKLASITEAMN
K168Q: 96.9%
I57A: 82%
E147Q: 95%
E130A: 105%
E152R: 92.3%

Other studies, line by line
PhoQ, residues 284 288 289 292 302 303 AGCYAI  fold induction (PhoP, residues 12 14 15 18 19 LHHSG (Escherichia coli, UniProt P23836); Sort-seq, measured: YFP reporter; E. coli; PhoQ-PhoP variant library, with: 10 µM Mg2+; relative to: high Mg2+ state, higher = stronger signaling): 2.64

For quick reference, copied from above (study 1):
UUUGAAGAUCUGUCCAUAUUCAGGAAUCUGAGAGUGUAAAAAAGGUACCAAUCAUUGAUUUUUUUUUUUUUUGUAAACUAAAAUGUUUAAAAUAAAAUAGCAUUUACAGU: 0.713
GGAAAAAACCUACAUGCUACAAGCCACCAUAUGCACAGACUAUACAGUGAGUUGAGUUGGCUCUCCCACAGUCUUUGAGGUGAAUUACAAAAGUCCAGCCAUUAUCAUCC: 0.666
UUCUAGAUGUAGGCUAACAAUGAAAAGUAUUUGCCAAACUGAAUAAAACUGUCAUGGUUACCUUGAAGGACAAUGGUUAUUGUUAAAUAUAGUGAUCAUUCAUGUCUAAA: 0.305
AGCCCCUGUCAUGGUGUCCAGACAGAGCCCUGUGAGGCUGGGUCCAAUUGUGGCACUUGGGGCACCUUGCUCCUCCUUCUGCUGCUGCCCCCACCUCUGCUGCCUCCCUC: 0.377
